Measured values gathered from unrelated publications.
Parts stem from different laboratories: compare values within a part only.

Set 1
Target: Replicase polyprotein 1ab, nsp13 helicase (rep, Severe acute respiratory syndrome coronavirus 2, UniProt P0DTD1)
Mode: inhibitor
Tested at: 20 µM
Quantity: inhibition
CCOC(=O)Nc1cc(-c2ccc(C)c(NS(C)(=O)=O)c2)nn2c(C)nnc12: 7.61%
O=C(Nc1cccc2c(=O)cc(-c3nnn[nH]3)oc12)c1ccc(OCCCCc2ccccc2)cc1: 12.1%
NCc1c[nH]c(=S)n1[C@H]1CCc2c(F)cc(F)cc2C1: 1.98%
C[n+]1cc2c3c(ccc2c2ccc4cc5c(cc4c21)OCO5)OCO3: 102%
Clc1cccc2c1CN(C1=NCCN1)C2: 13.3%
NCCCNCCCCNCCCN: 9.02%
CCN(CC)CCNC(=O)c1ccc(N)cc1: 1.87%
CCOc1ccccc1-n1c(C(C)N2CCN(C(=O)COc3ccc(Cl)cc3)CC2)nc2ccccc2c1=O (stereo not drawn): 0.49%
O=C(c1ccccc1)c1ccc2n1CCC2C(=O)O (stereo not drawn): 5.12%
CC(O)(C(=O)Nc1ccc(S(=O)(=O)c2ccccc2)cc1)C(F)(F)F (stereo not drawn): -4.67%
CCOc1ccc(/C=C2\NCCc3cc(OCC)c(OCC)cc32)cc1OCC: -4.25%
c1cnc(NCc2ccc(CNc3ncccn3)cc2)nc1: 0.59%
COC(=O)/C=C/C(=O)OCCN1C(=O)CCC1=O: 4.09%
O=C(O)CNC(=O)C(CS)Cc1ccccc1 (stereo not drawn): -2.3%
O=Nc1ccc(O)c2ncccc12: 99.8%
O=C(O)[C@]1(Cc2cccc(Nc3nccs3)n2)CC[C@@H](Oc2cccc(Cl)c2F)CC1: -0.59%
O=C(O)CCc1nc2ccccc2[nH]1: 5.22%
O=C1Nc2ccccc2C2(CCN(CCc3ccc(C(F)(F)F)cc3)CC2)O1: 8.2%
C=C1CC[C@H](O)C/C1=C/C=C1\CCC[C@]2(C)[C@@H]([C@H](C)/C=C/[C@H](C)C(C)C)CC[C@@H]12: 15.2%
NCCCC(O)(P(=O)(O)O)P(=O)(O)O: 8.05%
CC[C@H]1CN2CCc3cc(OC)c(OC)cc3[C@@H]2C[C@@H]1C[C@H]1NCCc2cc(OC)c(OC)cc21: 5.48%
CCOC(=O)[C@@H](N)CCC(=O)N[C@@H](CSCc1ccccc1)C(=O)N[C@@H](C(=O)OCC)c1ccccc1: 8.97%
CCCCN1CCCCC1C(=O)Nc1c(C)cccc1C (stereo not drawn): 6.06%
O=C(NCC1(N2CCN(c3ccccc3)CC2)CCOCC1)c1cccnc1Sc1ccccc1: 8.04%
O=C(O)c1ccc(N2N=C(Cc3ccccc3)/C(=C\c3ccc(-c4ccccc4F)o3)C2=O)cc1: 4.99%

Set 2
Target: RING finger protein unkempt homolog, zinc fingers 1-6, SBP tag (UNK, Homo sapiens, UniProt Q9C0B0, residues 30-357)
Chain of UniProt Q9C0B0 (30-357, looked up): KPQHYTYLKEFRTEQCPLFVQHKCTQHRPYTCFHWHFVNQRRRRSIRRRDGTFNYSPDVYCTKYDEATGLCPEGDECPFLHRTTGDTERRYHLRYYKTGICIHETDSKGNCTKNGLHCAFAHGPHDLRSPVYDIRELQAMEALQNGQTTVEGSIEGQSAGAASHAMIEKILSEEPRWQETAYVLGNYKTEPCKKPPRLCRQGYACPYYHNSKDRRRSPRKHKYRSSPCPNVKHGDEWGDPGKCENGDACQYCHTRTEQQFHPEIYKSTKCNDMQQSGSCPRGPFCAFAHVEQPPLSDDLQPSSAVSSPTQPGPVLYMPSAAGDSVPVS
Method: RNA Bind-n-Seq
Molecule type: RNA
Sample: in vitro
Tested at: 100 nM
Notes: RNA with constant flanks, vertebrate orthologous sites, ends assumed
Reference: input RNA pool
Direction: higher = stronger binding
Quantity: bound/input enrichment
Constant ends, left off below: GGGAGUUCUACAGUCCGACGAUC … CAACAGAGGAUUGAGCAUCA
GGGUGGCCGGUGGGGGAAUCCCAUGCCCUGACCUUGCCUCCCCUCCCUGCCACCCGCUCCUAGUUAUUAUUUUUUUUUUAAACCACCAUGUGAUUAAGGUCGGCGCUGCCUCCGACCCAC: 5.72 ratio
AUUUACACUAAUACUGAAGUUGCAGUUAAAAGGAUAUCCAAGGUGAUGAUAAAGUGUGUGUUGGUAGUUACUAAAAGAACUUUAGCUGUUACUGCCUUGUAUUUCUAUCCCUUGUUUCAG: 0.277 ratio
AAUUGAACAAAAACGUUUCCACUGGGUUUCGCCUGUAAGAAAAAAAUGCACCCAAGCACAUAGAGCUUUUUAAUAGCACUAACCAAUGCCUUUUUAGAUGUAUUUUUGAUGUAUAUAUCU: 0.663 ratio
AGCAACCCAAGGAUUCAGGACUGGUUUUACAAAUAUCCCAAGUAGAUAUGGAACUAACAGUAGAAUUGGACAACCAAGACCAUGAUGUACUAUAAUUUAAUUUAUUUUUAUGAGGAAUAU: 0.804 ratio
CUGUUGUGUGAAAUAUGUCUACCAAGAGAAGUAUCACACCAUAAACAUUGUCAAAUAAUUUAGCUACAAUCUUCUUAGAUACCAAAUUAUAUGUCAAGCAUUUAAAGUGAAUUUGAGAUG: 0.389 ratio
UGCCCGUUUACCCCUAAAAUAGGACUUUUUUUUAGAAUUCUGUUGCCACUUCUAAAAUCUUAGCAAUAUUAGAAUAACACACCACUGAAAUAAAUUUUACUCAUUAUUUUACAAACCAAA: 1.8 ratio
GUAUCUUGGUUUGGGUAAAGGGGAGGGAGGGGUAAGACGGUGUGGAAUCUCUAGAGUAUAAGGGGAGAUAGGGUGCAUAGUUAGUUCUAAAUGGGCCUUUAUGUUAAAAACCUCUGGGAG: 2.06 ratio
GUGAGGGUCUCCUGACCGCUCGCUGUUAUGUCUGGUAUCUGUAAACACUCUUUUUGUUCUUAGUCUUUUUCUUGUAUAAUUGAUGUUCUUUAAAAUUGUUCAUGUAUAACAGGGCUUAUG: 1.5 ratio

Set 3
Target: Ras GTPase-activating protein-binding protein 1, C-terminal RGG region (G3BP1, Homo sapiens, UniProt Q13283)
Chain of UniProt Q13283 (whole entry, looked up): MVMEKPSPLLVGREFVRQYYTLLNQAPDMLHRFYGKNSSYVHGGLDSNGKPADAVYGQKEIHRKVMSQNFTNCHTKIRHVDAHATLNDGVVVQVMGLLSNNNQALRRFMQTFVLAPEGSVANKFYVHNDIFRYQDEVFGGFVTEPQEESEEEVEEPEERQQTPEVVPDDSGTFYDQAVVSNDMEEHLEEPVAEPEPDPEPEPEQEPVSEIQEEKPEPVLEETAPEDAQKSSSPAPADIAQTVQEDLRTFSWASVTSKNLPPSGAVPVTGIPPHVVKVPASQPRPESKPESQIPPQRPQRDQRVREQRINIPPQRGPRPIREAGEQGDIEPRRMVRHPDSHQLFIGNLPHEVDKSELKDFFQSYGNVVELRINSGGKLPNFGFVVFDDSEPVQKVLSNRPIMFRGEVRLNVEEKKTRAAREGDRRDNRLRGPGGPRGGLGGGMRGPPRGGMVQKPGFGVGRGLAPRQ
Method: RNA Bind-n-Seq
Molecule type: RNA
Sample: in vitro
Tested at: 1 µM
Notes: whole 134-nt RNA, ends assumed
Together with: 150 mM KCl
Reference: input library
Direction: higher = stronger binding
Quantity: log2 enrichment
Constant ends, left off below: GGGAGUUCUACAGUCCGACGAUC … UGGAAUUCUCGGGUGUCAAGG
GCAGGAAGUAAAAACAAAUGGAAAUGAUUCGGAUAGUGGCAGGGGUGGGGGUUGCUAAGGAAAGGGUGGGAUGGGAGUGGGUAAAGAGUU: 1.88
UUGCAUUUCGAACGCGUUCUAAGAUGCCCCUGAAAGAUGUUCCCCUGGGCCAAUUAGAGGCAGAGCUCCAAGCUCCAGACAUCACUCCAG: 0.0411
AGUCCUGUGCUACACAUCGUAUGUACCGAAUCGGAAAGGUUUUUUUGGUUUUUUUGGAAAGUAUUAUGUUACGCCGUUCGGAUCUGCACU: -2.5
UAACUUUAGAGGAGGAUCUGAUGGUUAUGGCAGUGGACGUGGAUUUGGGGAUGGCUAUAAUGGGUAUGGAGGAGGACCUGGAGGUGGCAA: -1.08
CUGUGCUACACAUCGUAUGUACCGAAUCAAACCCCCCCAAACCCCCCCAAAUUUUUUUAAAAAAGUAUUAUGUUACGCCGUUCGGAUCUG: -1.03
UCGGAGGUGGAUUUUGUUUAUUUUUUUAGCUCAUUUCCAGGGGUGGGAAUUUUUUUUUAAUAUGUGUCAUGAAUAAAGUUGUUUUUGAAA: 3.21
AGUCCUGUGCUACACAUCGUAUGUACCGAAUCGGUUUUUGGUUUUUGGAAAAAAAGGAAAGUAUUAUGUUACGCCGUUCGGAUCUGCACU: -2
CACAGACAACACGCACCCACACAGACACAGAGGCAAGGGGUUGGGAUGGGGACAGGGUGCACAGCAGGGCGGGGUAGGACCCCAGCCCCU: -0.108

Set 4
Cell line: HEK-293T
Observed: pseudovirus infection
Organism: VSV pseudotyped with SARS-CoV-2 spike
Tested at: 10 µM
Time: 16 h
Reference: vehicle-treated
Quantity: GFP-positive cells
CC[C@@H]([C@H](C)O)n1ncn(-c2ccc(N3CCN(c4ccc(OC[C@@H]5CO[C@@](Cn6cncn6)(c6ccc(F)cc6F)C5)cc4)CC3)cc2)c1=O: 107%
O=C1Nc2ccc(Cl)cc2[C@@](C#CC2CC2)(C(F)(F)F)O1: 95.4%
CCc1cc2c(cc1CC)CC(NC[C@H](O)c1ccc(O)c3[nH]c(=O)ccc13)C2: 54.7%
CC(=O)Nc1cccc(-n2c(=O)n(C3CC3)c(=O)c3c(Nc4ccc(I)cc4F)n(C)c(=O)c(C)c32)c1: 87.1%
CC(=O)O[C@]1(C(C)=O)CC[C@H]2[C@@H]3CCC4=CC(=O)CCC4=C3[C@@H](c3ccc(N(C)C)cc3)C[C@@]21C: 92.3%

Set 5
Organism: SARS-CoV-2
Observed: cytopathic effect
Cells: Vero E6
Tested at: 10 µM
Quantity: inhibition
O=C1c2c(O)cc(O)cc2O[C@H](c2cc(O)c(O)c(O)c2)[C@H]1O: 1.1%
C[C@@H]1O[C@@H](Oc2c(-c3cc(O)c(O)c(O)c3)oc3cc(O)cc(O)c3c2=O)[C@@H](O)[C@H](O)[C@H]1O: -3.2%
C[C@@H](CN1CC(=O)NC(=O)C1)N1CC(=O)NC(=O)C1: 9.5%
CSc1ccc(C(=O)c2[nH]c(=O)[nH]c2C)cc1: 5.8%
O=c1[nH]nc(Sc2ncc([N+](=O)[O-])s2)n1-c1ccc2c(c1)OCCO2: -22.7%

Excerpt of the above (set 2):
CUGUUGUGUGAAAUAUGUCUACCAAGAGAAGUAUCACACCAUAAACAUUGUCAAAUAAUUUAGCUACAAUCUUCUUAGAUACCAAAUUAUAUGUCAAGCAUUUAAAGUGAAUUUGAGAUG: 0.389 ratio
UGCCCGUUUACCCCUAAAAUAGGACUUUUUUUUAGAAUUCUGUUGCCACUUCUAAAAUCUUAGCAAUAUUAGAAUAACACACCACUGAAAUAAAUUUUACUCAUUAUUUUACAAACCAAA: 1.8 ratio
GUAUCUUGGUUUGGGUAAAGGGGAGGGAGGGGUAAGACGGUGUGGAAUCUCUAGAGUAUAAGGGGAGAUAGGGUGCAUAGUUAGUUCUAAAUGGGCCUUUAUGUUAAAAACCUCUGGGAG: 2.06 ratio
GUGAGGGUCUCCUGACCGCUCGCUGUUAUGUCUGGUAUCUGUAAACACUCUUUUUGUUCUUAGUCUUUUUCUUGUAUAAUUGAUGUUCUUUAAAAUUGUUCAUGUAUAACAGGGCUUAUG: 1.5 ratio
